{"data": "Experimental data of several laboratories", "note": "Numbered parts are unrelated; each lists some results of a single study. Positions count from the first letter of the parent shown."}
{"data": "Study 1", "target": "CCND2, cyclin fold, Cln2 fusion (human)", "technique": "yeast growth competition, sequencing", "matrix": "yeast", "notes": "weak parent motif", "relative to": "not given", "reading": "higher = stronger binding", "parent": "SLBP docking peptide (human); ARYKRKLLINDFG"}
{"Change": "R2T", "normalised enrichment score": 0.791}
{"Change": "R2A", "normalised enrichment score": 0.0945}
{"Change": "N10D", "normalised enrichment score": 0.154}
{"Change": "F12N", "normalised enrichment score": 0.442}
{"Change": "F12A", "normalised enrichment score": 0.141}
{"Change": "R2D", "normalised enrichment score": 0.59}
{"Change": "K6P", "normalised enrichment score": -0.043}
{"Change": "Y3R", "normalised enrichment score": -0.0455}
{"data": "Study 2", "target": "Interferon regulatory factor 7, full length, phosphomimetic (IRF7, Homo sapiens, UniProt Q92985, residues 1-503, S101K/S471D/S472D/S475D/S476D/S477D/S483D/S484D/S487D)", "technique": "protein-binding microarray", "molecule type": "double-stranded DNA, one strand shown", "matrix": "in vitro", "concentration": "250 nM", "notes": "60-bp whole probe", "together with": "salmon DNA 0.4 mg/ml", "relative to": "random background probes", "reading": "higher = stronger binding", "all sequences stand within": "GCCTAGCAC … GTGCTAGGTCTTGATTCGCTTGACGCTGCTG", "chain of UniProt Q92985 (whole entry, unmodified, looked up)": "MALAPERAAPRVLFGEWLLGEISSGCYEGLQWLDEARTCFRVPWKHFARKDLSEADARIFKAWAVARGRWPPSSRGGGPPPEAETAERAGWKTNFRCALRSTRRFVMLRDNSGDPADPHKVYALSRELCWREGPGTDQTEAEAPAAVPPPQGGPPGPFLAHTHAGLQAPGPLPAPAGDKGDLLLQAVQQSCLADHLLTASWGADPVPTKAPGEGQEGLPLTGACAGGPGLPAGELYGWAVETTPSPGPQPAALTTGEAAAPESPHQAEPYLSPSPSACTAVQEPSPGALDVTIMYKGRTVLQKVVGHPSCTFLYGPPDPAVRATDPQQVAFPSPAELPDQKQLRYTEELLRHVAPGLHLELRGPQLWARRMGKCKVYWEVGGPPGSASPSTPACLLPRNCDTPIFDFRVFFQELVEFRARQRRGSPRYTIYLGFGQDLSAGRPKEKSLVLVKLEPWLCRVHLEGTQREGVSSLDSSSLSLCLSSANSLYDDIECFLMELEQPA"}
{"Sequence": "GACGTTTTCCTTTCCCTGAC", "log fluorescence [z-score]": 2.97}
{"Sequence": "GACGATCTCAGTCTCGAAAC", "log fluorescence [z-score]": 0.734}
{"Sequence": "CTACTTCTCTTTTTGCTTTC", "log fluorescence [z-score]": 2.65}
{"Sequence": "TTAGGTCTCGGTTTCCGTTA", "log fluorescence [z-score]": 8.44}
{"Sequence": "TATAGGTTGTTTCTAATATT", "log fluorescence [z-score]": 0.239}
{"data": "Study 3", "target": "Histone acetyltransferase KAT6A, both winged helices, GST fusion (KAT6A, Homo sapiens, UniProt Q92794, residues 1-181)", "technique": "protein binding microarray", "molecule type": "double-stranded DNA, one strand shown", "matrix": "in vitro", "concentration": "not given", "notes": "8-mer, flanks averaged, mean of 2 arrays, mostly near background", "relative to": "not given", "reading": "higher = stronger binding", "Target sequence (chain)": "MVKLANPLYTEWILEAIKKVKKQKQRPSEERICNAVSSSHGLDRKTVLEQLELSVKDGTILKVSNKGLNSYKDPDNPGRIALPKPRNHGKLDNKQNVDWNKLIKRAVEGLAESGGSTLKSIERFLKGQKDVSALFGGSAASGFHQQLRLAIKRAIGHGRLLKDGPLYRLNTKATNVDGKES"}
{"Sequence": "CTACCCGA", "E-score": 0.0819}
{"Sequence": "AACGGGTC", "E-score": 0.236}
{"Sequence": "AGCAAATG", "E-score": -0.276}
{"Sequence": "ACCCGTAT", "E-score": 0.229}
{"Sequence": "CTCCATGC", "E-score": -0.187}
{"Sequence": "CGCGAGAA", "E-score": 0.193}
{"Sequence": "GATGCCTA", "E-score": -0.187}
{"Sequence": "AATACCAA", "E-score": -0.0105}
{"Sequence": "CGGCCGGC", "E-score": 0.344}
{"data": "Other studies, line by line"}
{"Molecule": "PhoQ, residues 284 288 289 292 302 303 ASVMEA", "target": "PhoP, residues 12 14 15 18 19 HLGGL (Escherichia coli, UniProt P23836)", "assay": "Sort-seq, measured: YFP reporter", "system": "E. coli", "setting": "PhoQ-PhoP variant library, together with: 10 µM Mg2+", "scale": "relative to: high Mg2+ state, higher = stronger signaling", "endpoint": "fold induction", "value": 12.8}
